Experimental data from different studies.
Protocols differ between the studies behind these lines. “And” joins repeats or separate records; there may be more than shown. ± marks the error that the study gave.

For `c1ccc(-c2n[nH]cc2-c2ccnc3ccccc23)nc1`, “log2 fold change” read 1.5 (kinase binding, competitor, MIB/MS competition, measured: FPK1; Candida albicans cell lysate; 1 µM; reference: DMSO).
The sarcomere length of `O=C(O)CNC(=O)Cc1ccccc1` is reported as 1.72 µm (ventricular cardiomyocytes, C57BL/6 mouse; dose not given, 0.684 s).
For `Cn1cc(Nc2nccc(-c3ccc4c(c3)CN(C3COC3)CC[C@H]4NC(=O)c3cn(C(C)(C)C)nn3)n2)cn1`, “pathway activation z-score” read -3.21 (measured: tRNA Charging; splenic B cells, mouse; in vivo, 30 mg/kg, IgD-activated B cells; reference: vehicle, positive = activation).
The inhibition of `NCC(=O)Nc1cncc(-c2nn3c(=O)cc(N4CCNCC4)nc3s2)c1` is reported as 0% (ADP-induced platelet aggregation, light transmission aggregometry; human, stable CAD on aspirin, ex vivo platelets; subcutaneous, 0.04 mg/kg, 360 min post-dose, median value, with: ADP 20 µM).
`Cc1c(C)n(Cc2cccc(OC(C)(C)C(=O)O)c2)c2ccc(C(=O)N[C@@H](C)c3ccc(C(C)(C)C)cc3)cc12` — result for “bone volume change”: 0% (C57BL/6 mouse, diet-induced obesity, L4 vertebra; dose not given; reference: control).
`Cc1cc(C)c(CNC(=O)c2cc(Cl)c3c(c2C)O[C@@](C)([C@H]2CC[C@H](N(C)C)CC2)O3)c(=O)[nH]1` — result for “best overall response NE”: 0% (relapsed/refractory NHL patients, PTCL; oral, dose not given).
For `C=CCn1c(=O)c2cnc(Nc3ccc(N4CCN(C)CC4)cc3)nc2n1-c1ccc2c(n1)[C@@](O)(CC)CC2`, the tumour volume was 46.6% (BALB/c nude mouse, NCI-H1975 xenograft; oral, 80 mg/kg once daily ×18, day 18; reference: vehicle).
`N#Cc1ccc2c(-c3ccncc3)c(-c3ccc(F)cc3)nn2c1` — result for “log2 fold change”: -0.436 (kinase binding, competitor, MIB/MS competition, measured: RIO2; Candida albicans cell lysate; 1 µM; reference: DMSO).
For `COc1nc(-c2cccc(-c3ccccc3)c2C)ccc1CNCCNC(=O)CCCCCCCCCCC(=O)N1CCN(CCNC(=O)c2cc3c(=O)n4cccc(C)c4nc3n(CCc3cccs3)c2=N)CC1`, “CD3+ and CD8+ T cell count” read “increased” (flow cytometry, measured: CD3, CD8; mouse tumour model, tumour tissue; dose not given; reference: control).
The blood glucose of `COc1cc(O)c(CC=C(C)C)c(O)c1C(=O)/C=C/c1ccc(O)cc1` is reported as 225 mg/dL (glucose tolerance test; Tac:SW mice (male, conventional, high-fat diet); in diet, 60 mg/kg per day, 120 min after glucose, after 10 weeks).
`C=CC(=O)N1CCC(c2ccc(C(N)=O)c(-c3ccc(Oc4ccccc4)cc3)n2)CC1` has a CR of 32.1% (tumour response, Lugano classification; patients with relapsed/refractory MCL; dose not given, investigator assessed, 16.4 months follow-up).
`C[C@H]1O[C@@H](O[C@H]2CC[C@@]3(C)[C@@H](CC[C@]4(C)[C@@H]3C=C[C@]35OC[C@@]6(CCC(C)(C)C[C@H]63)[C@@H](O)C[C@]54C)[C@]2(C)CO)[C@H](O)[C@@H](O[C@@H]2O[C@H](CO)[C@@H](O)[C@H](O)[C@H]2O)[C@H]1O` has a protein level of 0.35 and 0.883 and 0.399 (Western blot, measured: Deptor; chronic-plus-binge ethanol-fed mice, liver; dose not given, dose level -L, unit not given; reference: β-actin).
With `CCCCc1nc2c(N)nc3ccccc3c2n1Cc1ccc(CN)cc1` the concentration was ~10 µM (TNF-α release, ELISA; PBMC, human; 24 h).
`COc1cc(Nc2ncc3c(n2)-c2ccc(Cl)cc2C(c2c(F)cccc2OC)=NC3)ccc1C(=O)O` — result for “median response score”: 2 (female NOD/scid mice, ALL-19 B-precursor ALL xenograft; 5.2 mg/kg, 5 days weekly, score scale 0 to 10; direction not given).
Under “CR plus CRi rate”, `COc1ncnn2ccc(-c3cnc4nc(C)n(Cc5nnc([C@@H](C)F)o5)c4c3)c12` is recorded as 35.7% (relapsed or refractory AML or MDS patients; dose not given).
For `COc1ccc2c(c1)CN(Cc1ccc(C(=O)O)cc1)CCS2`, “forelimb grip strength” read 0.16 ± 0.005 kgf (exercised mdx mice; 10 mg/kg, 1 weeks).
`O=C1Nc2cc3[nH]nc(-c4ccncc4)c3cc2CN1Cc1ccccc1` — result for “complete response, best response”: 0% (RECIST v1.1; human, relapsed or refractory advanced solid tumours; intravenous, 5.4 mg/kg, pooled schedules).
`Cc1noc(C)c1-c1cc(C(O)(c2ccccn2)c2ccccn2)c2nc(C3CC3)[nH]c2c1` has a maximum inhibition of 73% (measured: CCR2 expression; human, peripheral blood; 9 mg, day 8, 1604 study).
`C[C@H]1C[C@H]2CSC(N)=N[C@@]2(c2nc(NC(=O)c3ccc(OC(F)F)cn3)cs2)CO1`: “percent change from baseline” -87.1% (measured: Aβ1-40; healthy adults, plasma; 50 mg once daily, day 7; reference: placebo).
`CC(C)NCC(O)c1ccc(O)c(O)c1` (stereo not shown) gave a sarcomere length of 1.72 µm (ventricular cardiomyocytes, C57BL/6 mouse; dose not given, 0.08 s).
`Cc1n[nH]c2ccc(-c3cc(OC[C@@H](N)Cc4ccccc4)cnc3-c3ccoc3)cc12`: “log2 fold change” -0.566 (kinase binding, competitor, MIB/MS competition, measured: CMK1; Candida albicans cell lysate; 10 µM; reference: DMSO).
The inhibition of `CN[C@@H]1COc2c(S(=O)(=O)NC(=O)Nc3c4c(cc5c3CCC5)CCC4)cnn2C1` is reported as 95.8% (measured: IL-18; human participants, whole blood ex vivo; 300 mg twice daily, multiple doses, 156 h, IL-18, circulating, adjusted for, with: LPS/ATP; reference: baseline).
Under “CHAC1 mRNA change”, `O=C(COc1ccc(Cl)cc1)NC12CC(c3nnc([C@H]4C[C@@H](OC(F)(F)F)C4)o3)(C1)C2` is recorded as -41.7% (healthy human, PBMC; oral, 200 mg single dose, day 2, 24 h post-dose, median, with: sodium arsenite ex vivo; reference: baseline).
Under “total urinary corticosteroids”, `N#Cc1ccc2c(c1)[C@H]1CCCN(C(=O)c3ccc4[nH]cnc4c3)[C@H]1C2` is recorded as 76.6 % change (human, urine; 80 mg, 24 h, day 1 over day -1; reference: placebo and baseline).
`COc1ccc(F)cc1C(=O)NCc1ccc(-c2nn([C@@H](C)C(F)(F)F)c(N)c2C(N)=O)cc1` — result for “overall response rate”: 52% (MCL patients, prior BTK inhibitor; dose not given, efficacy-evaluable patients).
`Cc1cnc(N2CC3(CCOCC3)C2)c(C(=O)Nc2ccc(C(=O)N3CCc4cc(C(=O)Nc5c(C)cccc5F)sc4-c4ccccc43)cc2)c1`: “inhibition of CXCL8 AUC” 34% (human, RSV infection, nasal wash; dose not given, ITT-IS population; reference: placebo).
`CC(=O)O[C@@]12CO[C@@H]1C[C@H](O)[C@@]1(C)C(=O)[C@H](O)C3=C(C)[C@@H](OC(=O)[C@H](O)[C@@H](NC(=O)OC(C)(C)C)c4ccccc4)C[C@@](O)([C@@H](OC(=O)c4ccccc4)[C@H]21)C3(C)C` — result for “full-length AR protein level”: “decreased” (Western blot; male NRG mouse, CWR22Rv1 xenograft, tumour; dose not given, day 16).
For `CCOc1c([C@H](C)n2nc(C)c3c(N)ncnc32)cc(Cl)c(F)c1[C@@H]1CNC(=O)C1`, “percent change in level” read -43% (Olink proximity extension, measured: GT; human FL or MZL patients, plasma; dose not given, week 8 day 1, once-daily dosing; reference: baseline).
`CN[C@@H](C)C(=O)N[C@H]1CN(S(=O)(=O)c2cccc(S(=O)(=O)N3CC[C@H]4CC[C@@H](C(=O)NC(c5ccccc5)c5ccccc5)N4C(=O)[C@@H](NC(=O)[C@H](C)NC)C3)c2)CC[C@H]2CC[C@@H](C(=O)NC(c3ccccc3)c3ccccc3)N2C1=O`: “best response partial response” 20% (RECIST 1.1; advanced pancreatic cancer patients; dose not given, efficacy-evaluable, with: AG).
For `O[C@H]1CCCN[C@@H]1CCCn1cnc2c(Cl)c(Cl)ccc21`, the maximum reduction was 20.8% (ELISA, measured: Pro-C3; healthy human volunteers, serum; 50 mg, day 1, multiple ascending dose).
`NC(=O)c1cnc2[nH]ccc2c1N[C@@H]1[C@@H]2CC3C[C@H]1C[C@@](O)(C3)C2` has a percent change of -1.15% (CD8+ effector T cells, flow cytometry; Japanese humans, peripheral blood; 200 mg single dose; reference: baseline).
`COc1ccccc1[C@H](Cn1c(=O)n(C(C)(C)C(=O)O)c(=O)c2c(C)c(-c3ncco3)sc21)OC1CCOCC1` — result for “fractional hepatic DNL”: 8.08 % new palmitate ([1-13C]acetate infusion, isotopomer analysis; overweight or obese healthy men, plasma VLDL-TG palmitate; oral, 20 mg single dose, 3 h post-dose, with: oral fructose).
With `C[C@H](NC(=O)c1c(C(F)F)nn(C)c1Oc1cccc(C(F)(F)F)c1)c1ccc(C(=O)O)cc1` the not evaluable was 42.9% (irRECIST; human, advanced tumours; 500 mg; best overall response).
`OC[C@H]1O[C@@H](c2ccc(Cl)c(Cc3ccc(O[C@H]4CCOC4)cc3)c2)[C@H](O)[C@@H](O)[C@@H]1O` — result for “diastolic blood pressure change”: 1.5 mmHg (Japanese type 1 diabetes patients; 25 mg, day 28, 672 h; reference: baseline).
Under “log2 fold change”, `N#Cc1ccn2c(-c3ccncc3)c(-c3ccc(F)cc3)nc2c1` is recorded as 0.327 (kinase binding, competitor, MIB/MS competition, measured: YAK1; Candida albicans cell lysate; 1 µM; reference: DMSO).
`O=P(O)(O)C(Cl)(Cl)P(=O)(O)O` has a GFAP-positive area of 4.11% (astrogliosis, immunostaining; Mus musculus, subarachnoid haemorrhage model, hippocampal fissure; dose not given, day 1; reference: total area).
`CN(C)S(=O)(=O)CCNCc1cccc2ncccc12`: “mechanical withdrawal threshold” “no effect” (von Frey test; mouse, spared nerve injury model; intrathecal, dose not given, 30 min, ipsilateral paw, 20% ethanol vehicle; reference: vehicle).

For quick reference, copied from above:
`COc1ccc(F)cc1C(=O)NCc1ccc(-c2nn([C@@H](C)C(F)(F)F)c(N)c2C(N)=O)cc1` — result for “overall response rate”: 52% (MCL patients, prior BTK inhibitor; dose not given, efficacy-evaluable patients).
`Cc1cnc(N2CC3(CCOCC3)C2)c(C(=O)Nc2ccc(C(=O)N3CCc4cc(C(=O)Nc5c(C)cccc5F)sc4-c4ccccc43)cc2)c1`: “inhibition of CXCL8 AUC” 34% (human, RSV infection, nasal wash; dose not given, ITT-IS population; reference: placebo).
`CC(=O)O[C@@]12CO[C@@H]1C[C@H](O)[C@@]1(C)C(=O)[C@H](O)C3=C(C)[C@@H](OC(=O)[C@H](O)[C@@H](NC(=O)OC(C)(C)C)c4ccccc4)C[C@@](O)([C@@H](OC(=O)c4ccccc4)[C@H]21)C3(C)C` — result for “full-length AR protein level”: “decreased” (Western blot; male NRG mouse, CWR22Rv1 xenograft, tumour; dose not given, day 16).
For `CCOc1c([C@H](C)n2nc(C)c3c(N)ncnc32)cc(Cl)c(F)c1[C@@H]1CNC(=O)C1`, “percent change in level” read -43% (Olink proximity extension, measured: GT; human FL or MZL patients, plasma; dose not given, week 8 day 1, once-daily dosing; reference: baseline).
